Results of several laboratories.
Lines come from different studies, so protocols differ. ± marks the error that the study gave.
MTNR1A: Melatonin receptor type 1A (MTNR1A, Homo sapiens, UniProt P48039)
Sequence of UniProt P48039 (whole entry, looked up): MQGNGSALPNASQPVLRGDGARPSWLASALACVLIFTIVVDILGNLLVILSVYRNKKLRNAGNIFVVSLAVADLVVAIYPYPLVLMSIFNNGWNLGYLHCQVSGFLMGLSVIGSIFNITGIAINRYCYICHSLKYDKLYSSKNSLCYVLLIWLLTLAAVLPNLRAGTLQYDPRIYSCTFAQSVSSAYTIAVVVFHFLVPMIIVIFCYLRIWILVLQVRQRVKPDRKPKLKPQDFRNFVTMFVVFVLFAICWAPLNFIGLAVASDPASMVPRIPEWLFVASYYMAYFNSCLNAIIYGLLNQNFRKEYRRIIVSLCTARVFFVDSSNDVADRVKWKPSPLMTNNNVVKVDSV
PTH1R: Parathyroid hormone/parathyroid hormone-related peptide receptor (PTH1R, Homo sapiens, UniProt Q03431)
Sequence of UniProt Q03431 (whole entry, looked up): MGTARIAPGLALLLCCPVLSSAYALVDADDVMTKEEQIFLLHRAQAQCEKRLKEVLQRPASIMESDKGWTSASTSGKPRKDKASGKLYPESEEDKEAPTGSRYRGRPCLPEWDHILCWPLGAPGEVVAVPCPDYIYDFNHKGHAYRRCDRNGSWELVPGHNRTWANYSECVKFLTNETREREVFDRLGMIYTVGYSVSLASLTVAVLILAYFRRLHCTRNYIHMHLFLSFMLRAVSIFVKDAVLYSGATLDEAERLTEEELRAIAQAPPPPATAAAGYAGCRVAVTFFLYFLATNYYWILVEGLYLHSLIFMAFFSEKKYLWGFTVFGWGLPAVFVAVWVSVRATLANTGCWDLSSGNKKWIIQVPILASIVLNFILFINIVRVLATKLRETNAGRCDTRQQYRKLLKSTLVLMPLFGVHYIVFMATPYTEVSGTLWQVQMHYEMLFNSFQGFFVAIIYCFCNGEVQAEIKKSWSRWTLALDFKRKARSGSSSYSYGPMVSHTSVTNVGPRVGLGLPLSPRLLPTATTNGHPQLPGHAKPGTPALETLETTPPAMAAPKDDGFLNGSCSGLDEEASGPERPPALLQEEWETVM
Sequence of UniProt Q92847 (whole entry, unmodified, looked up): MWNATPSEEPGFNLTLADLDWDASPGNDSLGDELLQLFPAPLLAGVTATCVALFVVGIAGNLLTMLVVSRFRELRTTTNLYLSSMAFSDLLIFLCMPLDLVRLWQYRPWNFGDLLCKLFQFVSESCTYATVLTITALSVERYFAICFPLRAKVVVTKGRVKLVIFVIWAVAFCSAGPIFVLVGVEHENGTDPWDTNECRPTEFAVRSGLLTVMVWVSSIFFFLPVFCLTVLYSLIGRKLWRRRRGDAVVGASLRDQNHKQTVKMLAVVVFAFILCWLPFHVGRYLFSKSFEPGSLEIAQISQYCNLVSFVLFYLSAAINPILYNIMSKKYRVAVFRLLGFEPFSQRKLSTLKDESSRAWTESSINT
Sequence of UniProt Q969F8 (whole entry, unmodified, looked up): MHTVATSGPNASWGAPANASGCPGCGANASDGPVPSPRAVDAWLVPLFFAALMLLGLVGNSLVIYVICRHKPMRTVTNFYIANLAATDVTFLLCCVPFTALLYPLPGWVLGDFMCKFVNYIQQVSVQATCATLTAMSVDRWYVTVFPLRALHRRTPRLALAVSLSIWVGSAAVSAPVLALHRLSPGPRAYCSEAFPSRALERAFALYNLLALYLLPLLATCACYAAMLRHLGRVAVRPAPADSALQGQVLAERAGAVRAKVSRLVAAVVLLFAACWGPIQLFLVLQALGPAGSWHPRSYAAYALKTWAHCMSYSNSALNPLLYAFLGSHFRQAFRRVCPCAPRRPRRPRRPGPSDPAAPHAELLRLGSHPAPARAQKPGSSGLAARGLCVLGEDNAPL
Sequence of UniProt Q9NSD7 (whole entry, unmodified, looked up): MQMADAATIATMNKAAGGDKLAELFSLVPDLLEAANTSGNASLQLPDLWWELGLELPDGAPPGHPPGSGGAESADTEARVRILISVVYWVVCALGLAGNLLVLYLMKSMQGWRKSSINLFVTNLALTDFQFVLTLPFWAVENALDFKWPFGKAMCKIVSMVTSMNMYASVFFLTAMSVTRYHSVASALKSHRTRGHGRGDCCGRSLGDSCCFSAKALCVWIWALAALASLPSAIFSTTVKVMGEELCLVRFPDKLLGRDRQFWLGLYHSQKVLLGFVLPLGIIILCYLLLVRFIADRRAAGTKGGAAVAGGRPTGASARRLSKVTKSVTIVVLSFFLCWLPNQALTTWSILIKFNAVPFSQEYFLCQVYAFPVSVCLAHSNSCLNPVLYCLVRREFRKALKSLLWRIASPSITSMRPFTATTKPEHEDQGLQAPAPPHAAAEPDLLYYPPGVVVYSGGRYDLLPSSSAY
Sequence of UniProt P34972 (whole entry, unmodified, looked up): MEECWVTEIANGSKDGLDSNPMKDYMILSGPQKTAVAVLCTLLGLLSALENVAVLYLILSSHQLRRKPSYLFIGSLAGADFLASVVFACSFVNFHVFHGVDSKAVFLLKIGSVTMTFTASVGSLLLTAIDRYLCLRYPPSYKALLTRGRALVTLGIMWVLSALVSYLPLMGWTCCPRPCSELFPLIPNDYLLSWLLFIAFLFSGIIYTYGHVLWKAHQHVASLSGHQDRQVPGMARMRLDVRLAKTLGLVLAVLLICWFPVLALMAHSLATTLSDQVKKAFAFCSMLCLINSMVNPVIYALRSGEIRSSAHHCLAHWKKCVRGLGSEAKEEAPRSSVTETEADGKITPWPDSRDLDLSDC
Sequence of UniProt P25103 (whole entry, looked up): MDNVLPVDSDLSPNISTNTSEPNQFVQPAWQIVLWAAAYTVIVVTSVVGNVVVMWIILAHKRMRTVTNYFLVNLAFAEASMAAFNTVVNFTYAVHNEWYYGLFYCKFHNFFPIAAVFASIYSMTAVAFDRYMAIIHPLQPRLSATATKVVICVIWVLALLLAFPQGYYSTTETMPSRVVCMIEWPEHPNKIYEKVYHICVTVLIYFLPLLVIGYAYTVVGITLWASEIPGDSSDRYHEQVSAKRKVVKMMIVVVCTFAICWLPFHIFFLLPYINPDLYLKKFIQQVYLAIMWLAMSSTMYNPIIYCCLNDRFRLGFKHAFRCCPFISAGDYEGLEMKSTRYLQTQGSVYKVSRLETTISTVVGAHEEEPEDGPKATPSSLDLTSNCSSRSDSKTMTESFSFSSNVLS

SMILES = COc1ccc2[nH]c(I)c(CCNC(C)=O)c2c1; target or system = MTNR1A; test = cAMP, agonist, TR-FRET; test system = CHO-K1; setting = 20 min; measurement = Emax; result = 90%
SMILES = CCCCCCCCCCCCCCCC(=O)N[C@H](CCCNC(=N)N)C(=O)NCCCC[C@H](NC(=O)[C@H](C)NC(=O)[C@H](CCCCNC(=N)N)NC(=O)[C@H](CCC(N)=O)NC(=O)[C@H](Cc1c[nH]cn1)NC(=O)[C@H](CCCC)NC(=O)[C@H](CC(C)C)NC(=O)[C@H](CCC(N)=O)NC(=O)[C@@H](NC(=O)[C@H](CCC(=O)O)NC(=O)C(C)(C)NC(=O)[C@@H](NC(=O)C1(N)CCCC1)C(C)C)[C@@H](C)CC)C(N)=O; target or system = PTH1R; test = cAMP response, agonist, GloSensor cAMP; test system = GP-2.3; setting = ligand-on phase; measurement = Emax; result = 98.2 ± 6%
SMILES = COc1cc(C2C(NC(=O)c3ccc(NC(=O)OC(C)(C)C)cc3)(C(=O)O)C(c3ccc(OC(=O)c4cccs4)c(OC)c3)C2(NC(=O)c2ccc(NC(=O)OC(C)(C)C)cc2)C(=O)O)ccc1OC(=O)c1cccs1 (stereo not drawn); target or system = GLP1R (Homo sapiens, UniProt P43220, E34A); test = cAMP accumulation, agonist; setting = receptor mutant; scale = reference: wild type; measurement = Emax; result = 104 ± 3.78%
SMILES = CSCC[C@H](NC(=O)[C@H](CC(C)C)NC(=O)CNC(=O)[C@H](Cc1ccccc1)NC(=O)[C@H](Cc1ccccc1)NC(=O)[C@@H](N)CCC(N)=O)C(N)=O; target or system = Substance-P receptor, with miniGs (TACR1, Homo sapiens, UniProt P25103); test = miniGs recruitment, BRET; test system = HEK293; setting = 30 min; scale = reference: 10 µM substance P; measurement = Emax; result = 89 ± 7%
SMILES = COc1cc2c(CCNC(C)=O)c[nH]c2cc1Cl; target or system = MTNR1A; test = cAMP, agonist, TR-FRET; test system = CHO-K1; setting = 20 min; measurement = Emax; result = 86%
SMILES = CNC(=N)NCCC[C@H](NC(=O)[C@H](CC(C)C)NC(=O)NNC(=O)[C@H](Cc1ccccc1)NC(=O)[C@@H](NC(=O)[C@H](CC(N)=O)NC(=O)[C@@H]1C[C@@H](O)CN1C(=O)[C@@H](Cc1ccc(O)cc1)NC(C)=O)[C@@H](C)O)C(=O)N[C@@H](Cc1c[nH]c2ccccc12)C(N)=O; target or system = KiSS-1 receptor (KISS1R, Homo sapiens, UniProt Q969F8, L148G); test = inositol phosphate, agonist; test system = HEK293; measurement = Emax; result = 62.2%
SMILES = COc1cc(I)c(Cc2cc(OC)c(OC)cc2CC(=O)OC(C)(C)C)cc1OC; target or system = MTNR1A; test = GTPγS binding, agonist, radiometric; setting = cell membranes; measurement = Emax; result = 8%
SMILES = COC1CN([C@H]2CC[C@H]([C@@]3(C)Oc4c(Cl)cc(C(=O)NCc5c(SC)cc(C)[nH]c5=O)c(C)c4O3)CC2)C1; test = RNA-seq, refers to: SERPINI1; test system = human, whole blood; setting = dose not given, 24 h; scale = reference: pretreatment baseline; measurement = log2 fold change; result = 1.39
SMILES = CCc1cc(O)cc2c(/C=N/NC(=N)NCCc3ccc(Cl)cc3)c[nH]c12; target or system = RXFP3 (Homo sapiens, UniProt Q9NSD7, F146A); test system = HEK-293T; scale = reference: wild type; measurement = Emax; result = 53.8 ± 3.73%
SMILES = CCCCCCCCCCCCCCCC(=O)N[C@H](CCCNC(=N)N)C(=O)NCCCC[C@H](NC(=O)[C@H](CCCCNC(=N)N)NC(=O)[C@H](CCC(N)=O)NC(=O)[C@H](Cc1c[nH]cn1)NC(=O)[C@H](CCCC)NC(=O)[C@H](CC(C)C)NC(=O)[C@H](CCC(N)=O)NC(=O)[C@@H](NC(=O)[C@H](CCC(=O)O)NC(=O)C(C)(C)NC(=O)[C@@H](NC(=O)C1(N)CCCC1)C(C)C)[C@@H](C)CC)C(N)=O; target or system = PTH1R; test = cAMP response, agonist, GloSensor cAMP; test system = GP-2.3; setting = ligand-on phase; measurement = Emax; result = 94.2 ± 3.4%
SMILES = O=C1C[C@H](c2nc(-c3ccc(F)c4cn[nH]c34)no2)CCCN1c1ccc(F)cc1 (racemic); target or system = CNR2 (Homo sapiens, UniProt P34972, F281A); test = cAMP level, GloSensor cAMP; setting = CB2 mutant; scale = reference: wild-type receptor; measurement = Emax; result = 45.7%
SMILES = CCCCCCCCCCCCCCCC(=O)N[C@H](CCC(=O)O)C(=O)NCCCC[C@H](NC(=O)[C@H](CCCCNC(=N)N)NC(=O)[C@H](CCC(N)=O)NC(=O)[C@H](Cc1c[nH]cn1)NC(=O)[C@H](CCCC)NC(=O)[C@H](CC(C)C)NC(=O)[C@H](CCC(N)=O)NC(=O)[C@@H](NC(=O)[C@H](CCC(=O)O)NC(=O)C(C)(C)NC(=O)[C@@H](NC(=O)C1(N)CCCC1)C(C)C)[C@@H](C)CC)C(N)=O; target or system = PTH1R; test = cAMP response, agonist, GloSensor cAMP; test system = GP-2.3; setting = ligand-on phase; measurement = Emax; result = 85 ± 6.9%
SMILES = COc1ccc(C(=O)c2c(C(=O)NCCCN(C)C)oc3ccc(Cl)cc3c2=O)cc1OC; target or system = GHSR (Homo sapiens, UniProt Q92847, E197A); test = Gαq dissociation, TRUPATH BRET; test system = HEK293T; measurement = Emax; result = 93.1 ± 7.1%
SMILES = COc1ccc2[nH]c(Br)c(CCNC(C)=O)c2c1; target or system = MTNR1A; test = GTPγS binding, agonist, radiometric; setting = cell membranes; measurement = Emax; result = 85%
SMILES = CCCCCCCCCCCCCCCC(=O)N[C@@H](CCC(=O)O)C(=O)NCCCC[C@H](NC(=O)[C@H](CCC(N)=O)NC(=O)[C@H](Cc1c[nH]cn1)NC(=O)[C@H](CCCC)NC(=O)[C@H](CC(C)C)NC(=O)[C@H](CCC(N)=O)NC(=O)[C@@H](NC(=O)[C@H](CCC(=O)O)NC(=O)C(C)(C)NC(=O)[C@@H](NC(=O)C1(N)CCCC1)C(C)C)[C@@H](C)CC)C(N)=O; target or system = PTH1R; test = cAMP response, agonist, GloSensor cAMP; test system = GP-2.3; setting = ligand-on phase; measurement = Emax; result = 83.9 ± 2%

Repeated from above:
SMILES = COc1ccc2[nH]c(I)c(CCNC(C)=O)c2c1; target or system = MTNR1A; test = cAMP, agonist, TR-FRET; test system = CHO-K1; setting = 20 min; measurement = Emax; result = 90%
